Results gathered from unrelated publications.
Numbered parts are unrelated; each lists some results of a single study. Values joined by “and” are separate records of one study, mostly repeats; a detail may differ.
Chain of UniProt Q99683 (whole entry, looked up): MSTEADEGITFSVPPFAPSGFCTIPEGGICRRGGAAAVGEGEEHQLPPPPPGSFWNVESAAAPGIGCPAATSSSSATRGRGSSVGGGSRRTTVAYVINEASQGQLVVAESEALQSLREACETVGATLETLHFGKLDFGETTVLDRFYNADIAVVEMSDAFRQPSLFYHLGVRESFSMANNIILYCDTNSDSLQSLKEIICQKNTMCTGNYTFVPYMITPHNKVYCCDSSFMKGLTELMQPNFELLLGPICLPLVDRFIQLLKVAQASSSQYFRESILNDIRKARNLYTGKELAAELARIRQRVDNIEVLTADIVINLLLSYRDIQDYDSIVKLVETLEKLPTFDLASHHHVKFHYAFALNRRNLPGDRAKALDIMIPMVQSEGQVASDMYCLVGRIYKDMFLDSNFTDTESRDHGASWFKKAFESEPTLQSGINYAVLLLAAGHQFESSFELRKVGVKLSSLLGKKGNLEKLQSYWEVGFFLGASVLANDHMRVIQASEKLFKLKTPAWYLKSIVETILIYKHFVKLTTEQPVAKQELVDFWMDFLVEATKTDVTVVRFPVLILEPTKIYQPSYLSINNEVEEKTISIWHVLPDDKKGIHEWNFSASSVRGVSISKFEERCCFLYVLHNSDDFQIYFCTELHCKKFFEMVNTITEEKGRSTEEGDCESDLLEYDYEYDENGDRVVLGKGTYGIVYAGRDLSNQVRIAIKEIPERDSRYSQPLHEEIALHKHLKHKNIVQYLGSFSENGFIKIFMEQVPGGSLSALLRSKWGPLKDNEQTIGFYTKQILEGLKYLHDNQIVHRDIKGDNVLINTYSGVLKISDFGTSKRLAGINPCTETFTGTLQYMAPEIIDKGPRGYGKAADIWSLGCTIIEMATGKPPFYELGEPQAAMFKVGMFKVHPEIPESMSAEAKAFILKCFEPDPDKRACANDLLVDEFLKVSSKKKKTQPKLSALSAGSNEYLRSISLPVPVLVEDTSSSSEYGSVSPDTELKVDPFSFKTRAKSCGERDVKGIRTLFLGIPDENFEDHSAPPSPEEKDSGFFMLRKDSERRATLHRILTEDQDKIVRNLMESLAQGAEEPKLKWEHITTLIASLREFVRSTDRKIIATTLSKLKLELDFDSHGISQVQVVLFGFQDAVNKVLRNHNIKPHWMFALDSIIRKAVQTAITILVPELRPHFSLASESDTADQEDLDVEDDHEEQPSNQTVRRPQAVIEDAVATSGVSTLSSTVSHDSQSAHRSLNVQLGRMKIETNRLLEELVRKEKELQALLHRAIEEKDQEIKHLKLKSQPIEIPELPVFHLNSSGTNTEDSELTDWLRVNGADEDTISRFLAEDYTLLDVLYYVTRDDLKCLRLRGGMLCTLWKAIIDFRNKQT
Chain of UniProt P21127 (whole entry, looked up): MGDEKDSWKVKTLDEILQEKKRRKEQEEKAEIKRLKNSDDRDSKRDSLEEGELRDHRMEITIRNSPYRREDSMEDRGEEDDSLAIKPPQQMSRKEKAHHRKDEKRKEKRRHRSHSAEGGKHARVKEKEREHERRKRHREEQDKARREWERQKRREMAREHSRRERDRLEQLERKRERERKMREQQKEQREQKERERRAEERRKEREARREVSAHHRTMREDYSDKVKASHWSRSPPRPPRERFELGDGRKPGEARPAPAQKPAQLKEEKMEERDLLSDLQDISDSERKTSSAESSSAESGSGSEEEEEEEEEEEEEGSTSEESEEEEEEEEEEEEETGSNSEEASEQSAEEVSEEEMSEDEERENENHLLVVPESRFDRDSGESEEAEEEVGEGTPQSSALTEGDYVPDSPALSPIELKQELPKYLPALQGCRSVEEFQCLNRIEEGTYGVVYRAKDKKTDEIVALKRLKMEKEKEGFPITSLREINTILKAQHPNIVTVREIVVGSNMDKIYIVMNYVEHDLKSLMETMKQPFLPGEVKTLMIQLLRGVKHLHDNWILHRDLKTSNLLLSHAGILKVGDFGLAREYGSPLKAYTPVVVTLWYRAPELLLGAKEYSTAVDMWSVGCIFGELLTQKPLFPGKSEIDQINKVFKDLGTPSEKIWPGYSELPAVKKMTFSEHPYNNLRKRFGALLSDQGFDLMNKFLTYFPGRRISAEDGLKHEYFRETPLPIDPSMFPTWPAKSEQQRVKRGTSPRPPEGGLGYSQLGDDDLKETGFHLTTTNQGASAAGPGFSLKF
Chain of UniProt Q06418 (whole entry, looked up): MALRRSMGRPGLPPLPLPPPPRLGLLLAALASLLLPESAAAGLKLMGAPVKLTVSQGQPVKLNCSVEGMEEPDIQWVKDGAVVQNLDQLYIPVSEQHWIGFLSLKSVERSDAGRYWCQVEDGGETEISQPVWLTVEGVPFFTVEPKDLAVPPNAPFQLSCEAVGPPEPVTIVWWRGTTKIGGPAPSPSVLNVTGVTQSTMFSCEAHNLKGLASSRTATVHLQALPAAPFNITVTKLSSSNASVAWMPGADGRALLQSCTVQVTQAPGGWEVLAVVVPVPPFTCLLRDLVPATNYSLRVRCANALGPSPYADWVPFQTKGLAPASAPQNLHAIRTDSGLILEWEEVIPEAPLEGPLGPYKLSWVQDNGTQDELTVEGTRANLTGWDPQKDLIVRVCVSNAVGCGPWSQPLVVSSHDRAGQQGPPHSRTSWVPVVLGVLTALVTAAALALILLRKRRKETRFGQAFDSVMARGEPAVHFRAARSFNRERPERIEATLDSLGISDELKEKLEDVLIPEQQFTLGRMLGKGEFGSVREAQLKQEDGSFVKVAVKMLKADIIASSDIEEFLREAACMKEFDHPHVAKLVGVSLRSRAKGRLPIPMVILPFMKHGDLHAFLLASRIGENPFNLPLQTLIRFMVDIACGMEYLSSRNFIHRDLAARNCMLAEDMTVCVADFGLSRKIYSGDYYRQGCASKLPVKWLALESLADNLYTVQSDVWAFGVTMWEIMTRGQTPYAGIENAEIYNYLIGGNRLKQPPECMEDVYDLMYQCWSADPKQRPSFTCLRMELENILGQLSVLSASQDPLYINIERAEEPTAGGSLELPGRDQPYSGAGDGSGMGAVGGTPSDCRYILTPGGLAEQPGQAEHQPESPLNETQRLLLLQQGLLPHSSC
Chain of UniProt Q9HCP0 (whole entry, looked up): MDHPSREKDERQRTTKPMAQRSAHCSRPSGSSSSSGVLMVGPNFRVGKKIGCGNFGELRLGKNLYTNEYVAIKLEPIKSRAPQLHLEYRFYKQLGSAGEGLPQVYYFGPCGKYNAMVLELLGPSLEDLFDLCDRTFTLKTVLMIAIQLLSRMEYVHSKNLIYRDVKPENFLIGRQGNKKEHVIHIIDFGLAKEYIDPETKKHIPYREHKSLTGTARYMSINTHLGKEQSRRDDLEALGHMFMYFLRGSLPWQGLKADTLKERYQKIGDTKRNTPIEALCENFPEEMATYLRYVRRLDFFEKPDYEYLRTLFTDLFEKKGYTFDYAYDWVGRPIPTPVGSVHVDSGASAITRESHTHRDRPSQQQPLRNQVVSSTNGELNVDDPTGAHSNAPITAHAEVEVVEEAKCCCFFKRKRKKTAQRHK
Chain of UniProt Q13523 (whole entry, looked up): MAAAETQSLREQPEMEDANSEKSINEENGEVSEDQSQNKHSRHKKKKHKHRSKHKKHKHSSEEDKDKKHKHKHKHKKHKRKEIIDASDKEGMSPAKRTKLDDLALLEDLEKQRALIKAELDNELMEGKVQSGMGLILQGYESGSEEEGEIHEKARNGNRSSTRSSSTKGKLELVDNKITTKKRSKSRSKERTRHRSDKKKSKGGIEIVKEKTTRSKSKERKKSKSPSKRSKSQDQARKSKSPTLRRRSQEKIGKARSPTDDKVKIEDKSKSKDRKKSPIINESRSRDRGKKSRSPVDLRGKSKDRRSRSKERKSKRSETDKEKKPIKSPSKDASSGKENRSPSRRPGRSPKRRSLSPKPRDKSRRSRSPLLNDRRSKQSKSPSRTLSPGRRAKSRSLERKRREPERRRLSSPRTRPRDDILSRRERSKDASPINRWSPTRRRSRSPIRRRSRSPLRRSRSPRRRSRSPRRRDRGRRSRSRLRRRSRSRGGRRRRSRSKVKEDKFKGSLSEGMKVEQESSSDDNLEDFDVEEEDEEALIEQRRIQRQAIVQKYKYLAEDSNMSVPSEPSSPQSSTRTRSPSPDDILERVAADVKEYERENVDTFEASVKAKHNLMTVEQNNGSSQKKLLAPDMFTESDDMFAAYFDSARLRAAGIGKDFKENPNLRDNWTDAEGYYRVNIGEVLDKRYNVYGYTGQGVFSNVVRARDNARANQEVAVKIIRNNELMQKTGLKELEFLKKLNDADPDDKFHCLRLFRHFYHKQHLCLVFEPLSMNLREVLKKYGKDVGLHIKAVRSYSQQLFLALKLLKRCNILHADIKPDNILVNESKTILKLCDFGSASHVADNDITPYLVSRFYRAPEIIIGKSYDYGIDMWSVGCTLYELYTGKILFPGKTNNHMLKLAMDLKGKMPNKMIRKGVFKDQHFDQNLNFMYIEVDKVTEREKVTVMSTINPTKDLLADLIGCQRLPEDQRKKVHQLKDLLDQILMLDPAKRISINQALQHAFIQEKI
Chain of UniProt Q9UIK4 (whole entry, looked up): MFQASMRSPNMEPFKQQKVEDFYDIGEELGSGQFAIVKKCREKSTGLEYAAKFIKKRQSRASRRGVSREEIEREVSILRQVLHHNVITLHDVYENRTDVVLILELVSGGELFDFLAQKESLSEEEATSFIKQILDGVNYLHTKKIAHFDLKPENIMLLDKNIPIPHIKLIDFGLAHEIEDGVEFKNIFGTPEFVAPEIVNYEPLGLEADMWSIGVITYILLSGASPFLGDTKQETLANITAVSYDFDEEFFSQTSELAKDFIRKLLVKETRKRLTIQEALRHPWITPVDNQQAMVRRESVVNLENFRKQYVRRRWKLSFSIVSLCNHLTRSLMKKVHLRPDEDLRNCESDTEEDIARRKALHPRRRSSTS

Block 1 — Compound: CCOc1ccc(Nc2c3c(nc4ccccc24)CCC3)cc1; organism: Leishmania donovani; effect on: parasite killing; strain: DD8
system	setting	inhibition
intracellular amastigotes	80 µM, 24 h	100%
intracellular amastigotes	4 µM, 72 h	84% and 94% and 91%
promastigotes	6.66 µM, 24 h	70% and 62% and 74%
promastigotes	16.66 µM, 72 h	100%

Block 2 — effect on: enzyme activity; mode: inhibitor; concentration: 0.5 µM; reference: control
Target: Mitogen-activated protein kinase 12 (MAPK12, Homo sapiens, UniProt P53778)
Residues (P53778 1-367): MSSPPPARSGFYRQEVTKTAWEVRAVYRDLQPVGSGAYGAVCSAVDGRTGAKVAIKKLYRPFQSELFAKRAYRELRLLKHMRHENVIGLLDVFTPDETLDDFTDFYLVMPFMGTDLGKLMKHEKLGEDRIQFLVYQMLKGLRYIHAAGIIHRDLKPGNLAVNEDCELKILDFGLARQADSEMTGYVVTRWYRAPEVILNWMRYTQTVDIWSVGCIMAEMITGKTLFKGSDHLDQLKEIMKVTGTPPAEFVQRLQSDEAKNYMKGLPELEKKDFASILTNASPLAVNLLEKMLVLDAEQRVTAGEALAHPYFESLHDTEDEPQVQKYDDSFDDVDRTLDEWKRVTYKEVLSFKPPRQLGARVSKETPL
SMILES	remaining activity
Cn1c2ccccc2c2c3c(c4c5ccccc5n(CCC#N)c4c21)CNC3=O	85.8%
O=C(Nc1cccc(Nc2cc(Nc3cccc(C(F)(F)F)c3)ncn2)c1)C1CC1	89.2%
COc1ccc(C(=O)Nc2sc3c(c2C(N)=O)CCCC3)cc1OC	96.5%
COc1cc2ncnc(Nc3ccc(Oc4ccccc4)cc3)c2cc1OC	105%
Cc1cccc(-c2[nH]c(C(C)(C)C)nc2-c2ccc3c(c2)OCO3)n1	95.7%
O=c1c2ccccc2[nH]c(=S)n1CCN1CCC(=C(c2ccc(F)cc2)c2ccc(F)cc2)CC1	99%
CN(C)c1ccc(C=C2C(=O)Nc3ccccc32)cc1	102%
NCCNc1ncc(C(N)=O)c(Nc2cccc(C(F)(F)F)c2)n1	98.2%
O=C(CCCc1ccc(-c2ccccc2F)cc1)Nc1ccc(O)cc1	104%
Nc1ncnc2n[nH]c(Nc3ccc(F)cc3)c12	94.2%
Nc1[nH]nc2nc3ccccc3nc12	100%
CCOC(=O)c1c(C)[nH]c(/C=C2\C(=O)Nc3ccccc32)c1C	101%
OCC(O)CCON=C1C(c2c(O)[nH]c3ccccc23)=Nc2ccccc21 (centres unmarked)	89.9%
O=C1NC(=O)C(c2cn(CCCn3ccnc3)c3ccccc23)=C1Nc1ccccc1	102%

Block 3 — species: mouse; medium: microsomes or S9; concentration: 2 µM; time: 0.5 h
Structure (SMILES)	remaining compound
CC(C)(C)OC(=O)N1CCCn2c1nn(-c1cc(-c3cccc(C#N)c3)ccc1N)c2=O	39%
O=C(NCCc1nccs1)c1cc(-c2ccc(Br)s2)n[nH]1	45.4%
CN(Cc1cccc2cnccc12)c1cnccn1	2.28%
CCOCCOC1CCN(S(=O)(=O)c2cn(C)cn2)CC1	> 99%

Block 4 — effect on: cell-free assay; method: competition with immobilised ligand; concentration: 1 µM
SMILES: CN([C@@H]1CCc2c(CC(=O)O)c3cc(S(C)(=O)=O)ccc3n2C1)S(=O)(=O)c1ccc(F)cc1
target	remaining binding [%]
BUB1 (Homo sapiens, UniProt O43683)	86
TYRO3 (Homo sapiens, UniProt Q06418)	91
CDK11B (Homo sapiens, UniProt P21127)	100
PRPF4B (Homo sapiens, UniProt Q13523)	100
MAP3K5 (Homo sapiens, UniProt Q99683)	90
CSNK1G1 (Homo sapiens, UniProt Q9HCP0)	91
DAPK2 (Homo sapiens, UniProt Q9UIK4)	100

Some of these lines once more (block 2):
SMILES	remaining activity
Nc1[nH]nc2nc3ccccc3nc12	100%
CCOC(=O)c1c(C)[nH]c(/C=C2\C(=O)Nc3ccccc32)c1C	101%
OCC(O)CCON=C1C(c2c(O)[nH]c3ccccc23)=Nc2ccccc21 (centres unmarked)	89.9%
O=C1NC(=O)C(c2cn(CCCn3ccnc3)c3ccccc23)=C1Nc1ccccc1	102%
